{"data": "Assay results collected from several papers", "B1": "CHEK2 109-193 (Homo sapiens, UniProt O96017); chain VNDNYWFGRDKSCEYCFDEPLLKRTDKYRTYSKKHFRIFREVGPKNSYIAYIEDHSGNGTFVNTELVGKGKRRPLNNNSEIALSL", "B2": "SNAPC3 (Homo sapiens, UniProt Q92966); chain MAEGSRGGPTCSGVGGRQDPVSGSGGCNFPEYELPELNTRAFHVGAFGELWRGRLRGAGDLSLREPPASALPGSQAADSDREDAAVARDLDCSLEAAAELRAVCGLDKLKCLEDGEDPEVIPENTDLVTLGVRKRFLEHREETITIDRACRQETFVYEMESHAIGKKPENSADMIEEGELILSVNILYPVIFHKHKEHKPYQTMLVLGSQKLTQLRDSIRCVSDLQIGGEFSNTPDQAPEHISKDLYKSAFFYFEGTFYNDKRYPECRDLSRTIIEWSESHDRGYGKFQTARMEDFTFNDLCIKLGFPYLYCHQGDCEHVIVITDIRLVHHDDCLDRTLYPLLIKKHWLWTRKCFVCKMYTARWVTNNDSFAPEDPCFFCDVCFRMLHYDSEGNKLGEFLAYPYVDPGTFN", "B3": "ND3 1-128 (Yarrowia lipolytica, UniProt Q9B6C7); sequence looked up; chain MNTFIIFIILIPIVGFALLAVNILLAVYKPYNEKLGAFECGLTSFNQTRLAFNAAFILVAILFLPFDLEISTLLPYVMSIYLVSNYGFTIVLLFLLILIIGFVYEINTNALKINKHNKPNTDSLIYKL", "B4": "CNNM4 352-511 (Homo sapiens, UniProt Q6P4Q7); sequence looked up; chain NDLVKEELNMIQGALELRTKTVEDIMTQLQDCFMIRSDAILDFNTMSEIMESGYTRIPVFEDEQSNIVDILYVKDLAFVDPDDCTPLKTITRFYNHPVHFVFHDTKLDAMLEEFKKGKSHLAIVQKVNNEGEGDPFYEVLGLVTLEDVIEEIIKSEILDE", "B5": "rplK K39A (Thermus thermophilus, UniProt Q5SLP6); sequence looked up; chain MKKVVAVVKLQLPAGKATPAPPVGPALGQHGANIMEFVAAFNAATANMGDAIVPVEITIYADRSFTFVTKTPPASYLIRKAAGLEKGAHKPGREKVGRITWEQVLEIAKQKMPDLNTTDLEAAARMIAGSARSMGVEVVGAPEVKDA", "B6": "SPTB 1397-2137 (human, UniProt P11277); 125I-iodinated; chain AMEDQLRSDDPGKDLTSVNRMLAKLKRVEDQVNVRKEELGELFAQVPSMGEEGGDADLSIEKRFLDLLEPLGRRKKQLESSRAKLQISRDLEDETLWVEERLPLAQSADYGTNLQTVQLFMKKNQTLQNEILGHTPRVEDVLQRGQQLVEAAEIDCQDLEERLGHLQSSWDRLREAAAGRLQRLRDANEAQQYYLDADEAEAWIGEQELYVISDEIPKDEEGAIVMLKRHLRQQRAVEDYGRNIKQLASRAQGLLSAGHPEGEQIIRLQGQVDKHYAGLKDVAEERKRKLENMYHLFQLKRETDDLEQWISEKELVASSPEMGQDFDHVTLLRDKFRDFARETGAIGQERVDNVNAFIERLIDAGHSEAATIAEWKDGLNEMWADLLELIDTRMQLLAASYDLHRYFYTGAEILGLIDEKHRELPEDVGLDASTAESFHRVHTAFERELHLLGVQVQQFQDVATRLQTAYAGEKAEAIQNKEQEVSAAWQALLDACAGRRTQLVDTADKFRFFSMARDLLSWMESIIRQIETQERPRDVSSVELLMKYHQGINAEIETRSKNFSACLELGESLLQRQHQASEEIREKLQQVMSRRKEMNEKWEARWERLRMLLEVCQFSRDASVAEAWLIAQEPYLASGDFGHTVDSVEKLIKRHEAFEKSTASWAERFAALEKPTTLELKERQIAERPAEETGPQEEEGETAGEAPVSHHAATERTSPVSLWSRLSSSWESLQPEPSHPY", "B7": "cas1 1-324 (Pseudomonas aeruginosa, UniProt Q02ML7); chain MDDISPSELKTILHSKRANLYYLQHCRVLVNGGRVEYVTDEGRHSHYWNIPIANTTSLLLGTGTSITQAAMRELARAGVLVGFCGGGGTPLFSANEVDVEVSWLTPQSEYRPTEYLQRWVGFWFDEEKRLVAARHFQRARLERIRHSWLEDRVLRDAGFAVDATALAVAVEDSARALEQAPNHEHLLTEEARLSKRLFKLAAQATRYGEFVRAKRGSGGDPANRFLDHGNYLAYGLAATATWVLGIPHGLAVLHGKTRRGGLVFDVADLIKDSLILPQAFLSAMRGDEEQDFRQACLDNLSRAQALDFMIDTLKDVAQRSTVSA", "B8": "TIM9 1-87 (Saccharomyces cerevisiae, UniProt O74700); chain MDALNSKEQQEFQKVVEQKQMKDFMRLYSNLVERCFTDCVNDFTTSKLTNKEQTCIMKCSEKFLKHSERVGQRFQEQNAALGQGLGR", "B9": "PSMG4 1-123 (Homo sapiens, UniProt Q5JS54); chain MEGLVVAAGGDVSLHNFSARLWEQLVHFHVMRLTDSLFLWVGATPHLRNLAVAMCSRYDSIPVSTSLLGDTSDTTSTGLAQRLARKTNKQVFVSYNLQNTDSNFALLVENRIKEEMEAFPEKF", "B10": "PUM1 800-1186 (Homo sapiens, UniProt Q14671); chain SASSLFSPSSTLFSSSRLRYGMSDVMPSGRSRLLEDFRNNRYPNLQLREIAGHIMEFSQDQHGSRFIQLKLERATPAERQLVFNEILQAAYQLMVDVFGNYVIQKFFEFGSLEQKLALAERIRGHVLSLALQMYGCRVIQKALEFIPSDQQNEMVRELDGHVLKCVKDQNGNHVVQKCIECVQPQSLQFIIDAFKGQVFALSTHPYGCRVIQRILEHCLPDQTLPILEELHQHTEQLVQDQYGNYVIQHVLEHGRPEDKSKIVAEIRGNVLVLSQHKFASNVVEKCVTHASRTERAVLIDEVCTMNDGPHSALYTMMKDQYANYVVQKMIDVAEPGQRKIVMHKIRPHIATLRKYTYGKHILAKLEKYYMKNGVDLGPICGPPNGII", "B11": "dnaG P16 domain 453-597 (Geobacillus stearothermophilus, UniProt Q9X4D0); sequence looked up; chain AKKLLPAFQNAERLLLAHMMRSRDVALVVQERIGGRFNIEEHRALAAYIYAFYEEGHEADPGALISRIPGELQPLASDVSLLLIADDVSEQELEDYIRHVLNRPKWLMLKVKEQEKTEAERRKDFLTAARIAKEMIEMKKMLSSS", "B12": "DMC1 (Saccharomyces cerevisiae, UniProt P25453); sequence looked up; chain MSVTGTEIDSDTAKNILSVDELQNYGINASDLQKLKSGGIYTVNTVLSTTRRHLCKIKGLSEVKVEKIKEAAGKIIQVGFIPATVQLDIRQRVYSLSTGSKQLDSILGGGIMTMSITEVFGEFRCGKTQMSHTLCVTTQLPREMGGGEGKVAYIDTEGTFRPERIKQIAEGYELDPESCLANVSYARALNSEHQMELVEQLGEELSSGDYRLIVVDSIMANFRVDYCGRGELSERQQKLNQHLFKLNRLAEEFNVAVFLTNQVQSDPGASALFASADGRKPIGGHVLAHASATRILLRKGRGDERVAKLQDSPDMPEKECVYVIGEKGITDSSD", "B13": "ATG9 2-318 (Saccharomyces cerevisiae, UniProt Q12142); sequence looked up; chain ERDEYQLPNSHGKNTFLSRIFGLQSDEVNPSLNSQEMSNFPLPDIERGSSLLHSTNDSREDVDENDLRVPESDQGTSTEEEDEVDEEQVQAYAPQISDGLDGDHQLNSVTSKENVLETEKSNLERLVEGSTDDSVPKVGQLSSEEEEDNEFINNDGFDDDTPLFQKSKIHEFSSKKSNTIEDGKRPLFFRHILQNNRPQRDTQKLFTSSNAIHHDKDKSANNGPRNINGNQKHGTKYFGSATQPRFTGSPLNNTNRFTKLFPLRKPNLLSNISVLNNTPEDRINTLSVKERALWKWANVENLDIFLQDVYNYYLGNG", "B14": "β-dystroglycan mature (Oryctolagus cuniculus, UniProt Q28685); N-linked glycans; sequence looked up; chain SIVVEWTNNTLPLEPCPKEQITGLSRRIAEDNGQPRPAFTNALEPDFKATSIAITGSGSCRHLQFIPVAPPGIPSSVTPPTEVPDRDPEKSSEDDVYLHTVIPAVVVAAILLIAGIIAMICYRKKRKGKLTLEDQATFIKKGVPIIFADELDDSKPPPSSSMPLILQEEKAPLPPPEYPSQSVPETTPLNQDTVGEYTPLRDEDPNAPPYQPPPPFTAPMEGKGSRPKNMTPYRSPPPYVPP", "B15": "ALAS2 54-587 (Homo sapiens, UniProt P22557); sequence looked up; chain KATKAGGDSPSWAKGHCPFMLSELQDGKSKIVQKAAPEVQEDVKAFKTDLPSSLVSVSLRKPFSGPQEQEQISGKVTHLIQNNMPGNYVFSYDQFFRDKIMEKKQDHTYRVFKTVNRWADAYPFAQHFSEASVASKDVSVWCSNDYLGMSRHPQVLQATQETLQRHGAGAGGTRNISGTSKFHVELEQELAELHQKDSALLFSSCFVANDSTLFTLAKILPGCEIYSDAGNHASMIQGIRNSGAAKFVFRHNDPDHLKKLLEKSNPKIPKIVAFETVHSMDGAICPLEELCDVSHQYGALTFVDEVHAVGLYGSRGAGIGERDGIMHKIDIISGTLGKAFGCVGGYIASTRDLVDMVRSYAAGFIFTTSLPPMVLSGALESVRLLKGEEGQALRRAHQRNVKHMRQLLMDRGLPVIPCPSHIIPIRVGNAALNSKLCDLLLSKHGIYVQAINYPTVPRGEELLRLAPSPHHSPQMMEDFVEKLLLAWTAVGLPLQDVSVAACNFCRRPVHFELMSEWERSYFGNMGPQYVTTYA", "note": "Each line is one published result; not all experiments were run side by side.", "sequence of UniProt Q9Y244 (whole entry, looked up)": "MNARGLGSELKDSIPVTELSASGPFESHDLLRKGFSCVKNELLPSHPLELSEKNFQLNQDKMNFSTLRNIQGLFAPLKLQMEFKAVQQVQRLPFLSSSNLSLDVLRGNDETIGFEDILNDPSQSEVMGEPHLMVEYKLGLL", "sequence of UniProt P30043 (whole entry, looked up)": "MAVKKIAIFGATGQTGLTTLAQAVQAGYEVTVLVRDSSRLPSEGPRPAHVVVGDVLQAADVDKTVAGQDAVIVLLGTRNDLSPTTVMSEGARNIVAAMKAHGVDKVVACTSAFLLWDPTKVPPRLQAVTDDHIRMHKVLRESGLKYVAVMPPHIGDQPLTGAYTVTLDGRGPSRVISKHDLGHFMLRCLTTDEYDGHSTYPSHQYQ", "sequence of UniProt P16157 (whole entry, looked up)": "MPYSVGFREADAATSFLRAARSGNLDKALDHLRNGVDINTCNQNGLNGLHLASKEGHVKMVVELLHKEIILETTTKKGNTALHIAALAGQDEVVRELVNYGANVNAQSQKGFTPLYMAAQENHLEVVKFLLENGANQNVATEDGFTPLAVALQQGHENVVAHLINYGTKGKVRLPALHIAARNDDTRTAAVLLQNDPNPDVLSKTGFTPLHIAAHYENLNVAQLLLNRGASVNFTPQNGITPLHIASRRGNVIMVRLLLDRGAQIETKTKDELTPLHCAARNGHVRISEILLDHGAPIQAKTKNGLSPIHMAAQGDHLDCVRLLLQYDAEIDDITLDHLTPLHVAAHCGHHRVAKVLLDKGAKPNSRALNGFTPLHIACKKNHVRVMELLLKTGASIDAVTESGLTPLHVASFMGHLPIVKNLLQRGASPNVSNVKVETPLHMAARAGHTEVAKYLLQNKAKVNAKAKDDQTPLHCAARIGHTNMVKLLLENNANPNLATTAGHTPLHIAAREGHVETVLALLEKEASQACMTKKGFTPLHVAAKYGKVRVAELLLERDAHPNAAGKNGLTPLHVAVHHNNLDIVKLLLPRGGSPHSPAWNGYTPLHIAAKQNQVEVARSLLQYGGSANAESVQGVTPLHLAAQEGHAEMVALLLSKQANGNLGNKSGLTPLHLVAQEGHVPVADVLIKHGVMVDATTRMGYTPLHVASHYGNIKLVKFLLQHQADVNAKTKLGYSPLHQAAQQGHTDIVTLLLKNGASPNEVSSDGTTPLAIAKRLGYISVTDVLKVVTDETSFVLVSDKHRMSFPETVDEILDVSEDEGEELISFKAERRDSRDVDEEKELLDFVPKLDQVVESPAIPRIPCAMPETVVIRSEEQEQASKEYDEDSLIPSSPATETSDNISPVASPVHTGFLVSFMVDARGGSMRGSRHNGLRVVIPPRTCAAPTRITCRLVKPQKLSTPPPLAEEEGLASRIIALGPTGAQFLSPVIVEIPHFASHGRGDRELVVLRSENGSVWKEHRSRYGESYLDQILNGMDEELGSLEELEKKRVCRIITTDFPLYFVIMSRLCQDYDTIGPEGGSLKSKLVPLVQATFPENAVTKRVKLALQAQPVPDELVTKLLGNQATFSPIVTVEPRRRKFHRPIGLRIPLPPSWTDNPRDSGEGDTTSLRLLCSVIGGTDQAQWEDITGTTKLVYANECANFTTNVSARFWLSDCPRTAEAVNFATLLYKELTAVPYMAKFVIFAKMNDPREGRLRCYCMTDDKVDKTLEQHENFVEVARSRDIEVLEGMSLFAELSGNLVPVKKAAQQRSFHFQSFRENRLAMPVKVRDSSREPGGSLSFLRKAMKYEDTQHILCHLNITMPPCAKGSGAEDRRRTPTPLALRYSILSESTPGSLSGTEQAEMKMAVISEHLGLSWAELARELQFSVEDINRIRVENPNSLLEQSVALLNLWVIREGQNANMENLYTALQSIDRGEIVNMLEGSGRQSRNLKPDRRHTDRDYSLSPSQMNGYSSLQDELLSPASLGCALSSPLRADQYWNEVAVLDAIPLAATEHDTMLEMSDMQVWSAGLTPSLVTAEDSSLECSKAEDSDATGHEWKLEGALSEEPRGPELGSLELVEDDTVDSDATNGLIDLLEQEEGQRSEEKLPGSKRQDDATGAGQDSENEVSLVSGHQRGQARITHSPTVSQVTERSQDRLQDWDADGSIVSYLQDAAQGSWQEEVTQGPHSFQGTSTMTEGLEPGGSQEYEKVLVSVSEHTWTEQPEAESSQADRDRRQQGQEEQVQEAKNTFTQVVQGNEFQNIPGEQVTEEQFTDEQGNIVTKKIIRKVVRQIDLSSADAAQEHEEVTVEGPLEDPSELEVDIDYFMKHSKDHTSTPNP", "sequence of UniProt P06748 (whole entry, looked up)": "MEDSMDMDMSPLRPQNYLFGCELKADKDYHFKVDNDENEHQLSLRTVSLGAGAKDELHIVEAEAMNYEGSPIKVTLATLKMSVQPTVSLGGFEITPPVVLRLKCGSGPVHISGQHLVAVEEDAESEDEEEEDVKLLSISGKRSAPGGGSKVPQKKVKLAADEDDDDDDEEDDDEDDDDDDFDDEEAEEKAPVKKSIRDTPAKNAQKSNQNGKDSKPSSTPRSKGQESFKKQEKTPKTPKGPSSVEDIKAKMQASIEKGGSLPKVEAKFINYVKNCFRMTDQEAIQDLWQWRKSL", "sequence of UniProt O32081 (whole entry, looked up)": "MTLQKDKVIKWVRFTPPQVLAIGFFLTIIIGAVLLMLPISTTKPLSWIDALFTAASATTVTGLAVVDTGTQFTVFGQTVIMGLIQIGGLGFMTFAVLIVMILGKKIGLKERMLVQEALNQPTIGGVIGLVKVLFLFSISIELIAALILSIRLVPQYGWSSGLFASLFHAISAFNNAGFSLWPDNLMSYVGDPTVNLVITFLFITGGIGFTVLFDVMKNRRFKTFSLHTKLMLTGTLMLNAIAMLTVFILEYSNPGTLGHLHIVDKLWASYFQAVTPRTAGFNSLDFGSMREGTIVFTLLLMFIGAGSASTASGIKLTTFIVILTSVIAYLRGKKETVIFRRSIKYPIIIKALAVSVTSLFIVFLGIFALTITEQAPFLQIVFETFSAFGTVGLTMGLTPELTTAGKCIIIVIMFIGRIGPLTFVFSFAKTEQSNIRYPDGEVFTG", "sequence of UniProt P39760 (whole entry, looked up)": "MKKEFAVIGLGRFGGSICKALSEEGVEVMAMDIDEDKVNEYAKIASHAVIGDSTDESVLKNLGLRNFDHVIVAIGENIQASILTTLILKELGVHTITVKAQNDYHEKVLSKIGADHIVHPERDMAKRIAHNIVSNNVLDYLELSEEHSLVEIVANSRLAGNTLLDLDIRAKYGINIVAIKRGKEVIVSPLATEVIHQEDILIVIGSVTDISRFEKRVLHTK", "sequence of UniProt O75365 (whole entry, unmodified, looked up)": "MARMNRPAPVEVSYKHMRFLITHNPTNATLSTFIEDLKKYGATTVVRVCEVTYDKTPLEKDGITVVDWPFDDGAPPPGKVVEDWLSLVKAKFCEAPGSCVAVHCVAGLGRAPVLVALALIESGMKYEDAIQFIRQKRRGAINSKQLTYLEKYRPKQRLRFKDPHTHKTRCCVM", "sequence of UniProt Q06410 (whole entry, looked up)": "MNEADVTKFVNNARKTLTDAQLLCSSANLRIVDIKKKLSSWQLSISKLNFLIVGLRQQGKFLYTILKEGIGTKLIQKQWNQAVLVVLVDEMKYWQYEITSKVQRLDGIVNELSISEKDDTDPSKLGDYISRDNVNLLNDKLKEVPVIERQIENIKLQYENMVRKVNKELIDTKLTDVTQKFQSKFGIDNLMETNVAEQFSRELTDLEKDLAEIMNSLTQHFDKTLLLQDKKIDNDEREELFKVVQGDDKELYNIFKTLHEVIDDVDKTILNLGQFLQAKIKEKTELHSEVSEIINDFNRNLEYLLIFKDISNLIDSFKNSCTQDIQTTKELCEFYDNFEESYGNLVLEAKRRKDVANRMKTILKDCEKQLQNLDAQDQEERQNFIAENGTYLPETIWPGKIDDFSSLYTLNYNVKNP", "sequence of UniProt Q9B6E8 (whole entry, looked up)": "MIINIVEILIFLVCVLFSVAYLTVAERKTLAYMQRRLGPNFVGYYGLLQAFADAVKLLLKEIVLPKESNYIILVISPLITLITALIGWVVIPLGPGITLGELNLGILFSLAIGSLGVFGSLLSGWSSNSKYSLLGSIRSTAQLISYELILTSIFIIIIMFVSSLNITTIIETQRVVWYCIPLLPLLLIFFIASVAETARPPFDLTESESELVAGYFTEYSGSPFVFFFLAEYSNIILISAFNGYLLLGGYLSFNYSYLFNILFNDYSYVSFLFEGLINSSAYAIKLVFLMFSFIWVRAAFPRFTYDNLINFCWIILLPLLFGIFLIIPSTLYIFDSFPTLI", "sequence of UniProt P87108 (whole entry, looked up)": "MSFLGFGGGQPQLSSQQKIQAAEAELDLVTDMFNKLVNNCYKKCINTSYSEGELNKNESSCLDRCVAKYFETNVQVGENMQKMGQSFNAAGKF", "sequence of UniProt Q9X4C9 (whole entry, unmodified, looked up)": "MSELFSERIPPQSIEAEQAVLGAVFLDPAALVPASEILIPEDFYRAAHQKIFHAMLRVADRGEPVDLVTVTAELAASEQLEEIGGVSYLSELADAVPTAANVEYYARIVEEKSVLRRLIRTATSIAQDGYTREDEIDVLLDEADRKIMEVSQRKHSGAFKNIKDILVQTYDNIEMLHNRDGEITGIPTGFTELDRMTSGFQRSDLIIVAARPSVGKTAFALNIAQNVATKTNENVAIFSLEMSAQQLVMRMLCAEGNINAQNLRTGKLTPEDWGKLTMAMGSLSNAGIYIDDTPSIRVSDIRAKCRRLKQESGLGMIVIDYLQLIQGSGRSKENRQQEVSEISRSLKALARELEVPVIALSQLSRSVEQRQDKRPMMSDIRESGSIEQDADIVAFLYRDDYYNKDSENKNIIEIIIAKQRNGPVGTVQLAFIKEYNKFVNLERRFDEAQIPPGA", "sequence of UniProt Q84BQ9 (whole entry, unmodified, looked up)": "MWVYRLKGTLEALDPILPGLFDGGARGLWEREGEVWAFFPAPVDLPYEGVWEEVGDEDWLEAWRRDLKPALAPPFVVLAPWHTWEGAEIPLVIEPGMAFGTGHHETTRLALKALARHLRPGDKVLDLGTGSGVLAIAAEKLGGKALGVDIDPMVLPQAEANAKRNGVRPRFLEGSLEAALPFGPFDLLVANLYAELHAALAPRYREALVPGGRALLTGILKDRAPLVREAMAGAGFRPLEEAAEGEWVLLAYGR"}
{"Substance": "MYO5A fragment (Homo sapiens) (sequence not shown)", "partner": "CALM1 (Homo sapiens, UniProt P0DP23)", "method": "co-IP", "binding": "binds"}
{"Substance": "B1 (CHEK2 109-193)", "partner": "SQSTM1 (Homo sapiens, UniProt Q13501)", "method": "pull-down", "binding": "binds"}
{"Substance": "B2 (SNAPC3)", "partner": "SNAPC4 (Homo sapiens, UniProt Q5SXM2)", "method": "cryo-EM", "binding": "binds"}
{"Substance": "MEELQDDYEDMMEENLEQEEYEDPDIPESQ (SLC4A1 1-30 (Homo sapiens, UniProt P02730); sequence looked up)", "partner": "BLVRB (Homo sapiens, UniProt P30043)", "method": "NMR titration", "form": "peptide", "binding": "binds"}
{"Substance": "B3 (ND3 1-128)", "partner": "ND1 1-341 (Yarrowia lipolytica, UniProt Q9B6E8)", "method": "cryo-EM", "binding": "binds"}
{"Substance": "B4 (CNNM4 352-511)", "partner": "PTP4A3 1-169 (Homo sapiens, UniProt O75365)", "method": "pull-down", "binding": "binds"}
{"Substance": "B5 (rplK K39A)", "partner": "prmA (Thermus thermophilus, UniProt Q84BQ9)", "method": "X-ray crystallography", "setting": "complex, K39A mutant", "together with": "sinefungin 1 mM", "binding": "binds"}
{"Substance": "B6 (SPTB 1397-2137)", "partner": "ANK1 (Homo sapiens, UniProt P16157)", "method": "co-sedimentation", "binding": "binds"}
{"Substance": "B7 (cas1 1-324)", "partner": "cas3 1-1076 (Pseudomonas aeruginosa, UniProt Q02ML8)", "method": "cryo-EM", "binding": "binds"}
{"Substance": "PPITYTGRFSLEPAPNSGNTL (EGR1 129-149 (Homo sapiens))", "partner": "MIDN Catch domain (Homo sapiens)", "method": "X-ray crystallography", "form": "peptide", "binding": "binds"}
{"Substance": "B8 (TIM9 1-87)", "partner": "TIM10 (Saccharomyces cerevisiae, UniProt P87108)", "method": "SEC", "binding": "binds"}
{"Substance": "B9 (PSMG4 1-123)", "partner": "POMP (Homo sapiens, UniProt Q9Y244)", "method": "cryo-EM", "binding": "binds"}
{"Substance": "B10 (PUM1 800-1186)", "partner": "CNOT1/CNOT2/CNOT3 C-terminal NOT module 1833-2361", "method": "pull-down", "binding": "binds"}
{"Substance": "B11 (dnaG P16 domain 453-597)", "partner": "dnaB I119A/I125A (Geobacillus stearothermophilus, UniProt Q9X4C9)", "method": "NMR titration", "binding": "binds"}
{"Substance": "YQSAIKVEPASPPYYSEKTQL (PPARG residues 102-122 (Homo sapiens); N-acetyl, pS112)", "partner": "PIN1 (Homo sapiens, UniProt Q13526)", "method": "NMR", "form": "peptide", "binding": "binds"}
{"Substance": "B12 (DMC1)", "partner": "MLH1/MLH3 (Saccharomyces cerevisiae)", "method": "co-IP", "binding": "binds"}
{"Substance": "ENEEDILVVTTQG (CALCOCO2 128-140 (Homo sapiens); N-terminal FITC, phosphothreonine)", "partner": "RB1CC1 1490-1594 (Homo sapiens, UniProt Q8TDY2)", "method": "fluorescence polarisation", "form": "peptide", "binding": "binds"}
{"Substance": "GSYPRPRPRPRPRPR (poly-PR (PR)6)", "partner": "NPM1 (Homo sapiens, UniProt P06748)", "read-out": "droplet dissolution", "method": "solution turbidity", "form": "peptide", "binding": "binds"}
{"Substance": "B13 (ATG9 2-318)", "partner": "ATG17 (Saccharomyces cerevisiae, UniProt Q06410)", "method": "pull-down", "binding": "binds"}
{"Substance": "B14 (β-dystroglycan mature)", "partner": "DAG1 alpha-dystroglycan (Oryctolagus cuniculus, UniProt Q28685)", "method": "cryo-EM structure", "binding": "binds"}
{"Substance": "KtrC (Bacillus subtilis, UniProt P39760)", "partner": "ktrB 1-445 (Bacillus subtilis, UniProt O32081)", "method": "SEC", "binding": "binds"}
{"Substance": "B15 (ALAS2 54-587)", "partner": "CLPX/CLPP CLPP 14-mer, CLPX hexamer, ATPγS-bound 65-633 (Homo sapiens)", "method": "co-IP", "binding": "binds"}
{"note": "Repeated from above:"}
{"Substance": "B7 (cas1 1-324)", "partner": "cas3 1-1076 (Pseudomonas aeruginosa, UniProt Q02ML8)", "method": "cryo-EM", "binding": "binds"}
{"Substance": "PPITYTGRFSLEPAPNSGNTL (EGR1 129-149 (Homo sapiens))", "partner": "MIDN Catch domain (Homo sapiens)", "method": "X-ray crystallography", "form": "peptide", "binding": "binds"}
{"Substance": "B8 (TIM9 1-87)", "partner": "TIM10 (Saccharomyces cerevisiae, UniProt P87108)", "method": "SEC", "binding": "binds"}
